Assay results from different studies.
Each numbered part is a random draw from the data of one study; scales do not carry over between parts.
Sequence of UniProt O00238 (whole entry, looked up): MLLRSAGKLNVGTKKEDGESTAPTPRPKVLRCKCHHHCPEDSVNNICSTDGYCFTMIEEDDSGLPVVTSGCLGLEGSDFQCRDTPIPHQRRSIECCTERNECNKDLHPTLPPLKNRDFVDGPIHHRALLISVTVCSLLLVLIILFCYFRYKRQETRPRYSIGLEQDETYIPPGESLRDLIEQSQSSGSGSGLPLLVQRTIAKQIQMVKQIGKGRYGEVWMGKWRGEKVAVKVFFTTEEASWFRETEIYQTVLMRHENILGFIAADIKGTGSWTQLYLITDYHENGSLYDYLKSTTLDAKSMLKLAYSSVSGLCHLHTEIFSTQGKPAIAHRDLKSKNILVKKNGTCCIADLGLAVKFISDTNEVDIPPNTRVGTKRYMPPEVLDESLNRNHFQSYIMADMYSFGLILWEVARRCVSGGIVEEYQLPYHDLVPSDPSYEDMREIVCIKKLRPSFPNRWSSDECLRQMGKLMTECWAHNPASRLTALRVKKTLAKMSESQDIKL
Sequence of UniProt Q9HC98 (whole entry, looked up): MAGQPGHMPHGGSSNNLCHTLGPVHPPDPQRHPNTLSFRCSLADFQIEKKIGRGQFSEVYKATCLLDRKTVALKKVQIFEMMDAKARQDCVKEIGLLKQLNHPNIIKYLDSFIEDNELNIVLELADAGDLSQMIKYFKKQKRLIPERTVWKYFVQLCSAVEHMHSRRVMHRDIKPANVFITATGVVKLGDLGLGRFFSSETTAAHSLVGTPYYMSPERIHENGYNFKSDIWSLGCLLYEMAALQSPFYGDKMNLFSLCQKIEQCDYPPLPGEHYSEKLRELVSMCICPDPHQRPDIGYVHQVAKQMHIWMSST
Sequence of UniProt P10721 (whole entry, unmodified, looked up): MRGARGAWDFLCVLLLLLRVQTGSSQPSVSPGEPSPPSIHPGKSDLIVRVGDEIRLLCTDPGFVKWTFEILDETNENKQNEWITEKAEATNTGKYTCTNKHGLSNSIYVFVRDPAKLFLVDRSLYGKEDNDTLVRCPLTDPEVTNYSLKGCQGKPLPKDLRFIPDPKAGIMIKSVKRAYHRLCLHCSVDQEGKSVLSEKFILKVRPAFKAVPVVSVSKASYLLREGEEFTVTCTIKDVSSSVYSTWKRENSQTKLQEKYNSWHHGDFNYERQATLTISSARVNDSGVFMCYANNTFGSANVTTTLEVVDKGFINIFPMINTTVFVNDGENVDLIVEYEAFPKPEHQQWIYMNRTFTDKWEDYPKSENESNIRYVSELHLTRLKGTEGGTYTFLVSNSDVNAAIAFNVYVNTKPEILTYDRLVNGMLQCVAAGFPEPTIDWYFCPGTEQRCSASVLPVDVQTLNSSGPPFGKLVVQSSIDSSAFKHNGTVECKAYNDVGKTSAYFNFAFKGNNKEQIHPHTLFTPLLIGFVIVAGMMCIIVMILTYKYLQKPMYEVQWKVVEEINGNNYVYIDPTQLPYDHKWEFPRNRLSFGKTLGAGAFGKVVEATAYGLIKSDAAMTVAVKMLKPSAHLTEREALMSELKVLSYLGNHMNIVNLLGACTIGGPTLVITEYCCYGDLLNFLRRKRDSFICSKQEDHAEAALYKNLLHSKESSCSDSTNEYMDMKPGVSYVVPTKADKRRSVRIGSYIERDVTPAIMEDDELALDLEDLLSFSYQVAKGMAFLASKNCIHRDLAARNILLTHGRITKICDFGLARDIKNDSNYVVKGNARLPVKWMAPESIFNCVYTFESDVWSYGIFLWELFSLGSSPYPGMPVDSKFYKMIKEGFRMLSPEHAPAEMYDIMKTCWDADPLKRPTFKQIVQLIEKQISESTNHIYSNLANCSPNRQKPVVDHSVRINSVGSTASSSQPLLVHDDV
Sequence of UniProt Q8IW41 (whole entry, looked up): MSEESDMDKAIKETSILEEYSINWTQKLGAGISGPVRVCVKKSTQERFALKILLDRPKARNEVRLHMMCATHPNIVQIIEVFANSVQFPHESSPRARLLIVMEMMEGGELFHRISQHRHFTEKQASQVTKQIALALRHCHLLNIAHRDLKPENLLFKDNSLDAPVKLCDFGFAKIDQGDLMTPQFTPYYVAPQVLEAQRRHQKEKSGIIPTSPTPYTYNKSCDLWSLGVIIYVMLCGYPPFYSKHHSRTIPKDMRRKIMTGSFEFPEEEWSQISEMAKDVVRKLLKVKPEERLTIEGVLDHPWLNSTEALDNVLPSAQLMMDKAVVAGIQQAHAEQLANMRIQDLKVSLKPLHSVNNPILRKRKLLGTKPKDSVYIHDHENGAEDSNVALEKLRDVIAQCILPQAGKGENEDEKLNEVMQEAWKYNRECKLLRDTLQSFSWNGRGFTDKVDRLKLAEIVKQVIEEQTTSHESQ

Block 1
Structure (SMILES): O=C(NCc1ncc(C(F)(F)F)cc1Cl)c1ccc2c(c1)C1(CCS(=O)(=O)CC1)[C@@H](C1CC1)N2S(=O)(=O)c1ccc(F)cc1
Observed: cell-free assay
Technique: competition with immobilised ligand
Tested at: 1 µM
target	remaining binding [%]
Bone morphogenetic protein receptor type-1B (BMPR1B, Homo sapiens, UniProt O00238)	85
MAP kinase-activated protein kinase 5 (MAPKAPK5, Homo sapiens, UniProt Q8IW41)	100
Mast/stem cell growth factor receptor Kit (KIT, Homo sapiens, UniProt P10721, A829P)	67
Serine/threonine-protein kinase Nek6 (NEK6, Homo sapiens, UniProt Q9HC98)	95

Block 2
Target: Prothrombin, mature alpha-thrombin (F2, Homo sapiens, UniProt P00734)
Technique: aptamer microarray, sandwich
Molecule type: DNA with 2'F-ANA
Sample: in vitro
Tested at: 200 nM
Notes: whole 15-mer aptamer, many near background
Added: Cy3 exosite-II aptamer, 400 nM
Direction: higher = stronger binding
Oligonucleotide: GGTTGGTGTGGTTGG
Modification	mean fluorescence intensity [a.u.]
2'F-ANA at 1 5 7 8 10 12	50.1
2'F-ANA at 1 2 3 4 5 9 10 11 13 15	45.8
2'F-ANA at 2 3 4 7 8 9 11 12 14	352
2'F-ANA at 1 4 6 8 11 14 15	52.1
2'F-ANA at 2 3 5 6 8 9 11 12	182
2'F-ANA at 1 2 3 4 7 10 12 13 14	49.2
2'F-ANA at 1 2 6 10 11 13 14 15	51.3
2'F-ANA at 2 6 8 9 10 13 14	81.1

Block 3
Target: RNA binding protein fox-1 homolog 2, RRM domain, GST-SBP tag (RBFOX2, Homo sapiens, UniProt O43251-10, residues 100-194)
Technique: RNA Bind-n-Seq
Molecule type: RNA
Sample: in vitro
Tested at: 365 nM
Notes: natural RNA segment, single round, ends assumed
Relative to: no-protein control
Direction: higher = stronger binding
Shared flanks, not repeated: GGGAGUUCUACAGUCCGACGAUC … UGGAAUUCUCGGGUGCCAA
Oligonucleotide	RBNS enrichment (R)
UGUUGUGUCUUCCCCCAGGGCCUGUCCUGUACCGAGCUCUGUCUGUUCCAGCCUUCAUCCUUCCUGGCUGUUGCUUUUCCUCUUAAGGGCCUCAGAACUCUUGCUCUUCC	0.517
ACAACGAGAACAGAGAUGUUCUGGCAUCAUUUACGUAGUUUACGCUACCAAUCUGAAUUCGAGGCCCAUAUGAGAGGAGCUUAGAAACGACCAAGAAGAGAGGCUUGUUG	0.444
CUCCGUGCAGGAGGCCCUUCAUUAUUGCUGCAGAAGACAGAAGCCUGGCUGAGUCACUCUCCACGUCUAUCCUGAAAUCACUCAAUGCUUCUGCCGGGUUUUUGUACAUG	0.362
UGAAAGUAUAAAGGUUUCCUUGUGUUUUUCUGUGAGUGAACAUUUUGUAAUAAAUUAACAAGUUUGUACAAUUUCCUUGGUCCCUUGUUGUACAUCGACACAUAUAUCUC	0.373
UUCCUGAGGGGCCUCAGGGCAUUGGAGGGGGCCGACACCCCUCCACUAAAGAUUGAGUGAGGUCUCCCUGACUGAGGACUUCACCCCUUGAUUAAAGCAACUUGUGCUUC	0.451
UUCACUGCUGGCUGGUGUGAUGGGUGUAGAGUGCCCACAGAUGAGUCUAUGGAUGUCUUGGCUCUGCUGUCCUGUACUUGCGUGUGUUUUAUUCCUAUUUAAUGUUAUUG	1.98
CCAGAAGGAGCAAUGGCACCUGGGCAGUGCCAGGGCUUAAAGCCCGCUGCUCCUUUUCGGUAGAGGAGAGGCCCAUCACUGGUGUGGUGGGGUGGGCUCUCCCUUAGGCU	0.407
UCUGCAUCUGUCUCAGACAGGAGCUACCAAAGGGAAACUGUUGUUCUUAUAAGUGUCUUACUUUAAAUCAUGAUAAUAGAAUGUGCACAGUAGCUGAAUUGUGUUAUCAA	0.749

Further values, each from its own experiment
Structure (SMILES)	technique	host	route	dose	notes	measurement	result
CC(C)n1cnc(-c2ccc(F)cc2)c1-c1ncc(C(=O)Nc2ccc(N3CCN(C)CC3)cc2)[nH]1	phase 2a trial	idiopathic pulmonary fibrosis patients	oral	60 mg once daily	renal/urinary disorders, grade 1	patients with TEAE	2%

Excerpt of the above (block 2):
Modification	mean fluorescence intensity [a.u.]
2'F-ANA at 1 4 6 8 11 14 15	52.1
2'F-ANA at 1 2 6 10 11 13 14 15	51.3
